Experimental data gathered from unrelated publications.
Every numbered part comes from another study and shows a few of its results, in no order. Positions count from the first letter of the parent shown.

Set 1
Target: Ras GTPase-activating protein-binding protein 1, C-terminal RGG region (G3BP1, Homo sapiens, UniProt Q13283)
UniProt Q13283, sequence (whole entry, looked up): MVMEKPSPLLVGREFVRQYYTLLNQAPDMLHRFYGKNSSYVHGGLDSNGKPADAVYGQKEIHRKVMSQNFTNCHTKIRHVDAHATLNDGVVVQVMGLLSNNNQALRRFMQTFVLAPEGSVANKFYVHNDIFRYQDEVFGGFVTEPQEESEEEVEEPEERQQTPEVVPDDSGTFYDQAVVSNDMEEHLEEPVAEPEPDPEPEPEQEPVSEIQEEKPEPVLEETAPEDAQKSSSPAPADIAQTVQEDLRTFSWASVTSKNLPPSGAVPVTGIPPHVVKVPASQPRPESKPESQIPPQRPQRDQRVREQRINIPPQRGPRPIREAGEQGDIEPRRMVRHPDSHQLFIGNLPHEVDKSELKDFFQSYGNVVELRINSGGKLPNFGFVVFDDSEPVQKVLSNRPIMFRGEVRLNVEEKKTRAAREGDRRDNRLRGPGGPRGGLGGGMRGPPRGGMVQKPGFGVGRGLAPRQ
Technique: RNA Bind-n-Seq
Molecule type: RNA
Matrix: in vitro
Concentration: 1 µM
Setting: whole 134-nt RNA, ends assumed
With: 150 mM KCl
Relative to: input library
Reading: higher = stronger binding
Constant ends, left off below: GGGAGUUCUACAGUCCGACGAUC … UGGAAUUCUCGGGUGUCAAGG
| Strand | log2 enrichment |
| --- | --- |
| GUCCUGUGCUACACAUCGUAUGUACCGAAUCGGGGAAAAAGGAAAAAGGGAAAAAGGGAAAGUAUUAUGUUACGCCGUUCGGAUCUGCAC | -1.43 |
| CCUGUGCUACACAUCGUAUGUACCGAAUCAAACCCCCCCAAACCCCCCCAAAUUUUUAAAAAAGUAUUAUGUUACGCCGUUCGGAUCUGC | -0.559 |
| UAACUUUAGAGGAGGAUCUGAUGGAUAUGGCAGUGGACGUGGAUUUGGGGAUGGCUAUAGUGGGUAUGGAGGAGGACCUGGAGGUGGCAA | -1.24 |
| UGGGAGGUGGAUUUUGUUUAUUUUAUUAGCUCAUUUCCAGGGGUGGGAAUUUUUUUUUAAUAUGUGUCAUGAAUAAAGUUGUUUUUGAAA | 3.39 |
| UGGCCAAUAGCAUCCUUUUCCAGUCUUCCGGUCUGACAAAUGGAAUAAUAGAAGAAAAGGACAUACAUGAAGAAUUGCCAAAACGGAAAG | -1.89 |
| ACCAUGCAGGUGGGCAUCUUUGGGAAGUGGGGCACGGGGGGGAUAGGGAGGGGGGUAACACUUUGGGAACAGGUGGUCCCAGGUCGUUUC | -1.13 |
| AAGUCCUGUGCUACACAUCGUAUGUACCGAAUCGGGUUUGGGAGGGAAAAAAAGGGAAAGUAUUAUGUUACGCCGUUCGGAUCUGCACUU | 0.0415 |
| AAGUCCUGUGCUACACAUCGUAUGUACCGAAUCGGGGUUUGGGGUUUGGGGUUUGGGAAAGUAUUAUGUUACGCCGUUCGGAUCUGCACU | 1.59 |
| GUCCUGUGCUACACAUCGUAUGUACCGAAUCAAAUUUAAACCCCCAAAUUUUUUUAAAAAAGUAUUAUGUUACGCCGUUCGGAUCUGCAC | -0.312 |

Set 2
Target: ABI1, truncated, D143A, DHFR fusion (Arabidopsis thaliana)
Technique: DHFR PCA, deep sequencing
Matrix: yeast
Setting: methotrexate growth selection, single substitutions
With: (+)-ABA 2500 µM
Relative to: wild-type fitted maximum
Reading: higher = stronger binding
Starting sequence: PYL1, truncated, DHFR fusion (Arabidopsis thaliana); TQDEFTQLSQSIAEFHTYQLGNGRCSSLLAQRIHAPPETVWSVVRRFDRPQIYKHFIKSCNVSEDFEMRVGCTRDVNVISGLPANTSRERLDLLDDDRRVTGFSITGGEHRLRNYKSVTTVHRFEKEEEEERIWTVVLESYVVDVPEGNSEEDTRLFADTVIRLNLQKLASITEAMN
| Change | relative binding score [%] |
| --- | --- |
| L8S | 93.3 |
| D48T | 83.4 |
| D48I | 40 |
| E127S | 105 |
| V40R | -20.4 |
| L94W | 101 |
| V62L | 99.8 |
| I162A | 71.6 |
| T17I | 85 |
| E129M | 102 |
| V100R | 91.6 |
| E64M | 92.1 |
| Q10W | 90.6 |
| L94A | 78.5 |
| D96R | 65.6 |
| I33T | 77.9 |
| G108K | 75.8 |
| E109P | 85.5 |

Set 3
Target: UBE2T UBC core domain (UniProt Q9NPD8)
Technique: yeast two-hybrid
Matrix: yeast
Setting: mostly zero background
Relative to: not given
Reading: higher = stronger interaction
B1: TRIM60 RING domain (UniProt Q495X7); chain ALVNLQEESSCPICLEYLKDPVTINCGHNFCRSCLSVSWKDLDDTFPCPVCRFCFPYKSFRR
B2: DEF8 RING domain (UniProt Q6ZN54); chain AGRLGCSLTEIHTLFAKHIKLDCERCQAKGFVCELCREGDVLFPFDSHTSVCADCSAVFHRDCYYDNSTTCPKCARLSLRK
B3: RLIM RING domain (UniProt Q9NVW2); chain SFGENDALKTCSVCITEYTEGNKLRKLPCSHEYHVHCIDRWLSENSTCPICRRAVLASGNRE
B4: RNF166 RING domain (UniProt Q96A37); chain GDSGLEAQYTCPICLEVYHRPVAIGSCGHTFCGECLQPCLQVPSPLCPLCRLPFDPKKVDK
B5: RNF183 RING domain (UniProt Q96D59); chain EQQGRELEAECPVCWNPFNNTFHTPKMLDCCHSFCVECLAHLSLVTPARRRLLCPLCRQPTVLASGQP
Construct (chain): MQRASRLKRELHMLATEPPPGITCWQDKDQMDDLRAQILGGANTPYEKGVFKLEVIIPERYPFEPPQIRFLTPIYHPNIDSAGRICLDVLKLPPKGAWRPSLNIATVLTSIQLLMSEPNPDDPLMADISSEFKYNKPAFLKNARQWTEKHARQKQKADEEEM
| Molecule | lacZ reporter activity |
| --- | --- |
| B1 (TRIM60 RING domain) | 0 |
| B2 (DEF8 RING domain) | 0 |
| B3 (RLIM RING domain) | 0 |
| PEELAVNNDDCAICWDSMQAARKLPCGHLFHNSCLRSWLEQDTSCPTCRMSLNIADNNR (AMFR RING domain (UniProt Q9UKV5)) | 8780 |
| B4 (RNF166 RING domain) | 0 |
| B5 (RNF183 RING domain) | 0 |

Set 4
Target: RING finger protein unkempt homolog, zinc fingers 1-6, SBP tag (UNK, Homo sapiens, UniProt Q9C0B0, residues 30-357)
UniProt Q9C0B0, sequence (30-357, looked up): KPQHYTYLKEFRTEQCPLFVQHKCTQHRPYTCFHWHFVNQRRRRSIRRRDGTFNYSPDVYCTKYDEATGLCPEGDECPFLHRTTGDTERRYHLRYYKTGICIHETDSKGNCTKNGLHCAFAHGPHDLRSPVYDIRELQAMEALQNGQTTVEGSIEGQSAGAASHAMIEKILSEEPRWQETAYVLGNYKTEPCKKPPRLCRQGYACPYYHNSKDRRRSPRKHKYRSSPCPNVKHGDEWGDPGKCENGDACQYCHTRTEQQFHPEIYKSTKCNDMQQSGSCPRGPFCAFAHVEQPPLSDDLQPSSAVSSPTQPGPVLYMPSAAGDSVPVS
Technique: RNA Bind-n-Seq
Molecule type: RNA
Matrix: in vitro
Concentration: 100 nM
Setting: RNA with constant flanks, vertebrate orthologous sites, ends assumed
Relative to: input RNA pool
Reading: higher = stronger binding
Constant ends, left off below: GGGAGUUCUACAGUCCGACGAUC … CAACAGAGGAUUGAGCAUCA
| Strand | bound/input enrichment [ratio] |
| --- | --- |
| CAUAAAAUAUUGGAUGCAGUGUAUAAAUUAUCCAAGGCAGUGACUUCAGCUUUAUAUAUAUUGACAGUUUUAAAGUCAUCUGCAUUUAUUUAAACUCCUAUAUUGGAUCGUUUGAUCUGU | 0.382 |
| UUCCGCCCUCUCAUGACAGGGAGUGGGGGGAGCCCAGAACGACCCUCAACUGUUCCAAUCUAGUUGUUUUGUUUUGUUUGUUUUUUUUAAAUGACUGUAUUUAUUAUGACGAAGGUGAUU | 0.707 |
| CUCCCCGUUACCCCUAAGGUAGGACUUUUUAAAACUGUGUCGCCACCACUUCCAAAAAUUUAGCAAUAUUGGAAGAAAAUGCUAAUAAAGUAAAAAAUUUGCUUGCUGUUUUGGAAACCA | 0.469 |
| CUCUCUUAGCGAUAGUAUUCCAUCUGUAGCAGAUUCGCACUCGAGUCAUUUUUCUGAGUUUAGUUGCUCAGAUAUGGAAAGUAUGAAAACUUCCUGUAGCCAUGGUUCCAGUGACUAUCA | 0.517 |
| UAUAAGAACUCUUGAAGUCUUAGGGGUUAUAAAAAUAUAUAUCUGAAUUGUAAGAGCUGUUAGCACAGUUUUUUUUUUUUUUUUUUUUAAGCACUUGUUUGGGUACAAGGCAUUUCUGAA | 1.75 |
| CCCUUUCUCCCCAGCUGAGGGAGUUCAGGGAGCCCAGGACGACCCUCAACUGUUCCAAUCCAGUAUUUUUUUCUUUUUUUAAAAUUACUGUAUUUAUUAUGACGAUGGUGACUCCCCAGU | 0.365 |
| UUGGUUUAUUUUUUGUGUUGGUGUUUUUUGUUUUUUUGUUUUGUUUUUUGUUUUUGUCCUUUUGCUCAAGACUUUCUUUAAGGGCAACAUAAACUAAAAGUGAAACCUUAGGGAUUUUUU | 1.05 |
| GCUGUCUACCUGCCAGCCUUCUUCUAGGGGCGGCUUCAGAUCUAUCAGAUGUGUUGUAUCUAGGUGAGUUCAAUAUUUUUUUAUUAGCCUGUAAAUAAAGAUGACAUCGCCUACAUUAAA | 0.364 |

Repeated from above (set 2):
| Change | relative binding score [%] |
| --- | --- |
| E129M | 102 |
| V100R | 91.6 |
| E64M | 92.1 |
| Q10W | 90.6 |
